Measurements pooled from the literature.
Each numbered part is a random draw from the data of one study; scales do not carry over between parts.

Series 1
Target: Transcriptional repressor CTCF (CTCF, Homo sapiens, UniProt P49711, residues 1-727, full length assumed)
UniProt P49711, sequence (whole entry, looked up): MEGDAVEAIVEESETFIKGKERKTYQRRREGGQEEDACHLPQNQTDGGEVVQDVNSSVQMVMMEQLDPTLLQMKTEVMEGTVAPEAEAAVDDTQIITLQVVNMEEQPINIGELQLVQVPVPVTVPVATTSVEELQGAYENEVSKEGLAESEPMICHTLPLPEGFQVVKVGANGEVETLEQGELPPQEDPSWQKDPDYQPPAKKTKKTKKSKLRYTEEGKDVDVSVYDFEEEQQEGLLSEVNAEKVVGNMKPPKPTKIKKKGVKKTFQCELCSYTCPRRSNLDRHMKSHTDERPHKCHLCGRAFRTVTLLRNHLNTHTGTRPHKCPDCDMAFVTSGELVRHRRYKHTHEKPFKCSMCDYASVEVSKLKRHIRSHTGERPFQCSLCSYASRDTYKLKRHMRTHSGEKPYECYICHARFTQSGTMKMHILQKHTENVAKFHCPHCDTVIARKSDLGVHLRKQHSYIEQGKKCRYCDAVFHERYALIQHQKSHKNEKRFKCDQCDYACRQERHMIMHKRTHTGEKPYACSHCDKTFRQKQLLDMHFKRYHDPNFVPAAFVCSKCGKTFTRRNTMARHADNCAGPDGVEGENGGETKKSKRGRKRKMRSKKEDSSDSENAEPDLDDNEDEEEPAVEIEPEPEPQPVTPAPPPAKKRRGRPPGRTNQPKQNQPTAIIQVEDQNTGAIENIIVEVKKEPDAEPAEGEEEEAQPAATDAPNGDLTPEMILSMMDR
Technique: protein-binding microarray
Molecule type: double-stranded DNA, one strand shown
Medium: in vitro
Tested at: not given
Notes: k-mer, scored over probes, only values ≥0.25
Reading: higher = stronger binding
| Sequence | E-score |
| --- | --- |
| ATATAATG | 0.306 |
| ATAATCGC | 0.258 |
| ATAATATA | 0.4 |
| TGTGGTAA | 0.261 |
| ATATAAAA | 0.344 |
| CGCGCTAC | 0.279 |
| GCAATACC | 0.269 |
| ATAACATA | 0.364 |

Series 2
Target: RNA binding protein fox-1 homolog 2, RRM domain, GST-SBP tag (RBFOX2, Homo sapiens, UniProt O43251-10, residues 100-194)
Technique: RNA Bind-n-Seq
Molecule type: RNA
Medium: in vitro
Tested at: 365 nM
Notes: natural RNA segment, single round, ends assumed
Relative to: no-protein control
Reading: higher = stronger binding
Shared flanks, not repeated: GGGAGUUCUACAGUCCGACGAUC … UGGAAUUCUCGGGUGCCAA
Construct (chain): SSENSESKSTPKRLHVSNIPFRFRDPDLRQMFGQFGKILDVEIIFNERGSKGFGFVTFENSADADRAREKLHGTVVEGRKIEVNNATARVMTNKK
| Sequence | RBNS enrichment (R) |
| --- | --- |
| GGUUUUGCCACCUCCUCUCUCAGUAUCACUCCCUCCUCCCCAAACCCCAAUCUCCAGUGUCUGUAGCUCUUGCCUGCAAGUCUUGCUUGUGGGGUGACGAGGGGUGUAGA | 0.316 |
| GGGGACAAACUCAGGGCAGCCCUGUCCAGGUAGAAAUAUUUUUGCCCCCCUGUCUGAUGUUGAUGAGGGGUCAUACCAGCCAGGGAGACCCUCUGGGAGGAAGCUGCCAC | 0.468 |
| UGACAACAGGUGUGUACCACCACUCCUGACUUCCCUGCCCAAACUUCAUAUCCUACUUGUUAAUAGCCGUCUUCUCCCUCUGUCAUCUACCCAGAGCAUUCAGCUUGGGA | 1.06 |
| AUAUGUUUAUGUAUAUAUGUGAUUCUGAUAAAAUAGACAUUGCUAUUCUGUUUUUUAUAUGUAAAAACAAAACAAGAAAAAAUAGAGAAUUCUACAUACUAAAUCUCUCU | 0.455 |
| UCUAGGAAUGCAGUUAGUAAAAGCCUGGCGUCUACUGCAGAGUAUGUAUACUUGGUGGUAGAGGGCUUGCUUGAAGACCCAAGUUCCAUCCCUAGCACCACAGAGCAGGG | 0.608 |
| GAUGCAUUGUCCUGCUAACCCACAAACCUGUUUGGAAAUAAACAUGGAAGAAUAUCUGGCAGGCUUACUUUUAGAAGACGACAAAUCGGUAAGGCUUAUUCAUGGUUCAU | 0.34 |
| CAUUUUGGUGUGCCCAUUCCUUCUUUUCCUGAACUCACAGUCUUGGGGUGUUUCUGCACUUGGCUAUGUGUGUCUUGUCUGAUGUCUGUCUUCUGUAGCUUUGCCUCUAU | 0.417 |
| GGCUUACGCAAAAGGUCACCAUUUGAGGUCCUGCCUUACUAAUUAUGUGCUGCCCAACAACUAAAUUUGUAAUUUGUUUUUCUCUAGUUUGAGCAGGGUCUGAAUUUUUU | 0.492 |

Series 3
Target: Centromere-binding protein 1, full length, N-terminal tag (CBF1, Saccharomyces cerevisiae, UniProt P17106, residues 1-351)
UniProt P17106, sequence (whole entry, looked up): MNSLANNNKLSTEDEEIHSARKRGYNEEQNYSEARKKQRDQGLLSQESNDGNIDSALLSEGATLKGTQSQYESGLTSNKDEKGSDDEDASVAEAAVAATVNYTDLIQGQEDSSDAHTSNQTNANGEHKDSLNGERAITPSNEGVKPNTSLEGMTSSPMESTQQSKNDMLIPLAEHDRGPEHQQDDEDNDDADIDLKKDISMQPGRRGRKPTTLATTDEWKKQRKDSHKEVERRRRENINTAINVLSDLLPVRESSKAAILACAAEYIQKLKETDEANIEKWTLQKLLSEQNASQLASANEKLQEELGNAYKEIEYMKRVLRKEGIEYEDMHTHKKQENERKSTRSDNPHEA
Technique: protein-binding microarray
Molecule type: double-stranded DNA, one strand shown
Medium: in vitro
Tested at: 0.8 µM
Notes: whole 60-bp probe, no competitor
Reading: higher = stronger binding
Shared flanks, not repeated: … GTCTTGATTCGCTTGACGCTGCTG
| Sequence | fluorescence intensity [a.u.] |
| --- | --- |
| TGTACGAAGCTATGTCACGTGGATATAGTAGTTAGG | 13200 |
| CTACAGAATTGCTGTCGCATCACCAAAAAAAAATTC | 527 |
| CTACTAGTATATTATCACATGCAGTGTAAGAAGTTC | 1580 |
| CTAAGAGACATTGGCCACGAGGAGTGTAGCGGCTTC | 531 |
| GAACCTTTGTAAACGATCGTGACCCGCGGACCATAG | 668 |
| CTAAAAATTGACCTGCACATGGAGAAAGCGTAATTC | 572 |
| CCTAACTACTATAATCACGTACGATAGCTTCGTACA | 566 |
| CCTAACTACTATATTCTCGTGGTATAGCTTCGTACA | 578 |

Further values, each from its own experiment
| SMILES | cell line | setting | endpoint | result |
| --- | --- | --- | --- | --- |
| OCc1ccccc1 | A-375 | 100 µM, 18 h | viability | 91.1% |

For quick reference, copied from above (series 2):
| Sequence | RBNS enrichment (R) |
| --- | --- |
| AUAUGUUUAUGUAUAUAUGUGAUUCUGAUAAAAUAGACAUUGCUAUUCUGUUUUUUAUAUGUAAAAACAAAACAAGAAAAAAUAGAGAAUUCUACAUACUAAAUCUCUCU | 0.455 |
| UCUAGGAAUGCAGUUAGUAAAAGCCUGGCGUCUACUGCAGAGUAUGUAUACUUGGUGGUAGAGGGCUUGCUUGAAGACCCAAGUUCCAUCCCUAGCACCACAGAGCAGGG | 0.608 |
| GAUGCAUUGUCCUGCUAACCCACAAACCUGUUUGGAAAUAAACAUGGAAGAAUAUCUGGCAGGCUUACUUUUAGAAGACGACAAAUCGGUAAGGCUUAUUCAUGGUUCAU | 0.34 |
